Published values pooled from the literature.
Protocols differ between the studies behind these lines.
PIK3CA: Phosphatidylinositol 4,5-bisphosphate 3-kinase catalytic subunit alpha isoform (PIK3CA, Homo sapiens, UniProt P42336)
PIK3CA with p85 alpha: Phosphatidylinositol 4,5-bisphosphate 3-kinase catalytic subunit alpha isoform, with p85 alpha (PIK3CA, Homo sapiens, UniProt P42336)
PIK3CA E545A: Phosphatidylinositol 4,5-bisphosphate 3-kinase catalytic subunit alpha isoform (PIK3CA, Homo sapiens, UniProt P42336, E545A)
PIK3CA Q546K: Phosphatidylinositol 4,5-bisphosphate 3-kinase catalytic subunit alpha isoform (PIK3CA, Homo sapiens, UniProt P42336, Q546K)
PIK3CA M1043I: Phosphatidylinositol 4,5-bisphosphate 3-kinase catalytic subunit alpha isoform (PIK3CA, Homo sapiens, UniProt P42336, M1043I)
PIK3CA C420R: Phosphatidylinositol 4,5-bisphosphate 3-kinase catalytic subunit alpha isoform (PIK3CA, Homo sapiens, UniProt P42336, C420R)

For `COc1ccc(O)cc1-c1c[nH]c2ncc(-c3cncc(C(=O)N(C)C)c3)cc12`, the inhibition was 9.08% (PIK3CA; binding, competition with immobilised ligand; 0.2 µM).
`CC(=O)c1cnc(N)nc1N1CC[C@H]1c1nn2ccc(Cl)c2c(=O)n1-c1ccccc1` gave a target engagement of -7.6% (PIK3CA; KiNativ; Jurkat cell lysate; 1 µM, 0.25 h).
`CN1CC[C@@H](COc2cnc(C#N)cc2-c2ccn3nc(NC(=O)C4CC4)cc3c2)C1` gave an inhibition of -1% (PIK3CA with p85 alpha; inhibitor, KinaseProfiler panel; 1 µM).
With `C=CC(=O)Nc1cccc(-c2cnc3[nH]cc(C(=O)NC(C)(C)C)c3n2)c1` the inhibition was 27% (PIK3CA; enzyme activity, inhibitor; 0.1 µM).
`C=CC(=O)N1CCc2ccc(-n3c(=O)ccc4cnc5ccc(-c6cnn(C)c6)cc5c43)cc21` gave a remaining binding of 95% (PIK3CA; KINOMEscan; 1 µM; baseline: DMSO control).
`Cc1nc2c(F)cc(-c3nc(Nc4ccc(CNC(=O)CCCCCCC(=O)NO)cc4)ncc3F)cc2n1C(C)C` has an inhibition of 14% (Phosphatidylinositol 4,5-bisphosphate 3-kinase catalytic subunit alpha isoform, with p85 (PIK3CA, Homo sapiens, UniProt P42336, E542K); enzyme activity, inhibitor; 1 µM).
The remaining binding of `Nc1ncc2c(n1)-c1c([nH]c3ccc(C4=CCOCC4)cc13)CCC2` is reported as 100% (PIK3CA E545A; binding, competition with immobilised ligand; 1 µM).
With `C=CC(=O)N1CCCC(n2c(=O)c3ncccc3n(Cc3ccc(Oc4ccccc4)cc3)c2=O)C1` (stereo not drawn) the remaining binding was 67% (PIK3CA Q546K; cell-free assay, competition with immobilised ligand; 1 µM).
With `COc1c(Cl)cccc1Nc1c(-c2ccncc2C#C[C@@]2(C)CCCN2C(=O)/C=C/CN(C)C)[nH]c2c1C(=O)NCC2` the remaining binding was 71% (PIK3CA Q546K; binding, competition with immobilised ligand; 3 µM).
For `Cc1ccc(-c2c(/C=C(\C#N)C(=O)NC(C)C)n(CCCO)c3ncnc(N)c23)cc1`, the remaining binding was 88% (PIK3CA M1043I; cell-free assay, competition with immobilised ligand; 1 µM).
The inhibition of `Cc1cccc(O[C@H]2CCC[C@@H](C(C)CNCc3ccncc3)C2)c1` (relative stereo) is reported as -5% (PIK3CA; enzyme activity, inhibitor; 10 µM).
The remaining binding of `CC(C)=CC1OC(C)(C)C2C=C3C(=O)C(Cl)=CC(O)C3C3C(O)C4OC4C(=O)C132` (stereo not drawn) is reported as 66% (PIK3CA C420R; cell-free assay, competition with immobilised ligand; 10 µM).
For `O=c1c(-c2ccc(Cl)c(CN3CCOCC3)c2)coc2cc(O)ccc12`, the remaining activity was 98% (Phosphatidylinositol 4,5-bisphosphate 3-kinase catalytic subunit alpha isoform, with p85 (PIK3CA, Homo sapiens, UniProt P42336, H1047R); enzyme activity, inhibitor; 1 µM).
For `CNC(=O)C1CCN(c2cc(C)c(F)cc2NC(=O)c2ccc(-c3cc(O)ccc3C)c(C)c2)CC1`, the remaining binding was 100% (PIK3CA M1043I; binding, competition with immobilised ligand; 1 µM).
With `C=CC(=O)N1Cc2nc(-c3cc(-c4cc(Cl)cnc4Cl)c(F)cc3F)n(-c3ccncn3)c2C1` the inhibition was -17.9% (PIK3CA with p85 alpha; kinome panel; 1 µM).
With `C=CC(=O)Nc1cc(-c2nn(C3CCN(CCNC(=O)[C@H](C)CCC45CC6CC(CC(C6)C4)C5)CC3)c3ncnc(N)c23)ccc1Oc1ccccc1` the inhibition was -41.8% (PIK3CA; inhibitor, KiNativ profiling; biochemical; 2 µM).
The remaining binding of `CNC1C[S+]2CC[S+]3CC[S+](C1)[Ru-4]321([N]=C=S)[n]2c3ccc(OC)cc3c3c4c(c5cc(F)c[n+]1c5c32)C(=O)NC4=O` (stereo not drawn) is reported as 89% (PIK3CA C420R; KinomeScan; 0.1 µM; baseline: untreated).
`COc1cc(Nc2nccc(-c3cnn4nc(OC)ccc34)n2)cc(C(F)(F)F)c1` has a remaining binding of 78% (PIK3CA; binding, competition with immobilised ligand; 1 µM).
`Cc1cnc2nc1Nc1cccc(c1)COC/C=C/COCc1cc(ccc1OCCN1CCOCC1)N2` has a remaining binding of 96% (PIK3CA; binding; 0.1 µM).
`CCN1CCN(Cc2ccc(C(=O)Nc3ccc(C)c(NCc4cnc5[nH]ccc5c4OC)c3)cc2C(F)(F)F)CC1` gave a remaining binding of 71% (PIK3CA (Homo sapiens, UniProt P42336, H1047Y); binding, competition with immobilised ligand; 1 µM).
For `COc1cc(Nc2nc(C)cc(-c3cnn4nc(OC)ccc34)n2)cc(C(F)(F)F)c1`, the remaining activity was 77% (PIK3CA E545A; inhibitor; 1 µM; baseline: control).

Some of these lines once more:
For `COc1cc(Nc2nc(C)cc(-c3cnn4nc(OC)ccc34)n2)cc(C(F)(F)F)c1`, the remaining activity was 77% (PIK3CA E545A; inhibitor; 1 µM; baseline: control).
`C=CC(=O)N1CCc2ccc(-n3c(=O)ccc4cnc5ccc(-c6cnn(C)c6)cc5c43)cc21` gave a remaining binding of 95% (PIK3CA; KINOMEscan; 1 µM; baseline: DMSO control).
With `C=CC(=O)Nc1cccc(-c2cnc3[nH]cc(C(=O)NC(C)(C)C)c3n2)c1` the inhibition was 27% (PIK3CA; enzyme activity, inhibitor; 0.1 µM).
